Assay results of several laboratories.
Each line is one published result; not all experiments were run side by side. Values joined by “and” are separate records of one study, mostly repeats; a detail may differ. ± gives the spread as reported.

`O=C1NC2(CC2)COc2ncc(F)cc2[C@H]2COCCN2c2ccn3ncc1c3n2`: “organ-to-body weight ratio” 3.56 ± 0.299% (Sprague-Dawley rat, male, liver; oral, 20 mg/kg/day, 4 weeks, end of treatment).
With `C/C(=N\OCCCN1CCCCC1)c1ccc(C(F)(F)F)cc1` the Cmax was 1640 ± 156 ng/mL (mouse, plasma; oral, 150 mg/kg once daily, day 7).
For `CC1(C)C(=O)N(c2ccc(C#N)c(C(F)(F)F)c2)C(=S)N1c1ccc(C(=O)O)c(F)c1`, the Tmax was 96 ± 40.9 h (healthy male humans, plasma; oral, 160 mg, fasting, soft capsules).
For `CC[C@H](C)[C@H](NC(=O)[C@H](CCCCN)NC(=O)CNC(=O)[C@H](CC(C)C)NC(=O)[C@H](Cc1ccccc1)NC(=O)[C@H](CCCCN)NC(=O)[C@H](CO)NC(=O)[C@H](Cc1ccccc1)NC(=O)[C@H](Cc1c[nH]c2ccccc12)NC(=O)[C@H](CCC(N)=O)NC(=O)[C@@H](NC(=O)[C@H](Cc1ccccc1)NC(=O)CCCCCNC(=O)CN1CCN(CC(=O)O)CCN(CC(=O)O)CCN(CC(=O)O)CC1)C(C)C)C(=O)N[C@@H](CCC(=O)O)C(=O)N1CCC[C@H]1C(=O)N[C@@H](CC(=O)O)C(=O)N[C@H](C(=O)N[C@@H](CO)C(=O)N[C@@H](CCC(N)=O)C(=O)N[C@H](C(=O)N[C@@H](CCC(N)=O)C(=O)N[C@@H](CC(=O)O)C(=O)N1CCC[C@H]1C(=O)N[C@@H](CC(N)=O)C(=O)N[C@@H](CC(=O)O)C(=O)N[C@@H](CCC(N)=O)C(=O)N[C@@H](Cc1ccc(O)cc1)C(=O)N[C@@H](CCC(=O)O)C(=O)N1CCC[C@H]1C(=O)N[C@@H](Cc1ccccc1)C(=O)O)C(C)C)C(C)C` [copper-64 labelled], the tissue uptake was 1.45 ± 0.3 %ID/g (C57BL/6 male mouse, tumour-naive, bone; 1 h).
`CC(C)Oc1c(NC(=O)c2ccc(NC(=O)[C@H](CC(N)=O)NC(=O)c3ccc(/N=N/c4ccccc4)cc3)cc2)ccc(C(=O)Nc2ccc(C(=O)O)cc2)c1O`: “thermal relaxation half-life” 19.3 h (absorbance kinetics; 35 °C, photostationary to ground state).
With `COc1cnc2cccc(N3CCc4c(cc(Cn5ccnc5)cc4-c4cn(C)nc4C(F)(F)F)C3=O)c2c1` the body weight was 20.5 g and 21.2 g and 22.3 g and 23.8 g and 23.6 g (BALB/c nude mice, MV4-11 xenograft; intraperitoneal, 50 mg/kg, day 17).
`N#[11C]c1ccc(-c2csc(NN=C3CCCC3)n2)cc1`: “uptake in adrenal gland” 7.18 ± 2.07 %ID/g (C57BL/6 mouse, male; intravenous, 3 MBq, 30 min).
Under “mean tissue distribution”, `CSCC[C@H](N)C(=O)N[C@@H](C)C(=O)N[C@@H](Cc1c[nH]c2ccccc12)C(=O)N[C@@H](Cc1c[nH]cn1)C(=O)N[C@@H](CC(=O)O)C(=O)N[C@@H](CC(=O)O)C(=O)N[C@@H](CCC(=O)O)C(=O)N[C@@H](CCC(=O)O)C(=O)N[C@@H](Cc1ccccc1)C(=O)N[C@@H](C)C(=O)N[C@@H](CCCNC(=N)N)C(=O)N[C@@H](CCCNC(=N)N)C(=O)N[C@@H](CCCNC(=N)N)C(=O)N[C@@H](CCCNC(=N)N)C(=O)NCCCCCC(=O)NCCCCC(NC(=O)CCCCCNC(=O)[C@H](CCCNC(=N)N)NC(=O)[C@H](CCCNC(=N)N)NC(=O)[C@H](CCCNC(=N)N)NC(=O)[C@H](CCCNC(=N)N)NC(=O)[C@H](C)NC(=O)[C@H](Cc1ccccc1)NC(=O)[C@H](CCC(=O)O)NC(=O)[C@H](CCC(=O)O)NC(=O)[C@H](CC(=O)O)NC(=O)[C@H](CC(=O)O)NC(=O)[C@H](Cc1c[nH]cn1)NC(=O)[C@H](Cc1c[nH]c2ccccc12)NC(=O)[C@H](C)NC(=O)[C@@H](N)CCSC)C(=O)NCCCCC(NC(=O)C(CCCCNC(=O)CCCCCNC(=O)[C@H](CCCNC(=N)N)NC(=O)[C@H](CCCNC(=N)N)NC(=O)[C@H](CCCNC(=N)N)NC(=O)[C@H](CCCNC(=N)N)NC(=O)[C@H](C)NC(=O)[C@H](Cc1ccccc1)NC(=O)[C@H](CCC(=O)O)NC(=O)[C@H](CCC(=O)O)NC(=O)[C@H](CC(=O)O)NC(=O)[C@H](CC(=O)O)NC(=O)[C@H](Cc1c[nH]cn1)NC(=O)[C@H](Cc1c[nH]c2ccccc12)NC(=O)[C@H](C)NC(=O)[C@@H](N)CCSC)NC(=O)CCCCCNC(=O)[C@H](CCCNC(=N)N)NC(=O)[C@H](CCCNC(=N)N)NC(=O)[C@H](CCCNC(=N)N)NC(=O)[C@H](CCCNC(=N)N)NC(=O)[C@H](C)NC(=O)[C@H](Cc1ccccc1)NC(=O)[C@H](CCC(=O)O)NC(=O)[C@H](CCC(=O)O)NC(=O)[C@H](CC(=O)O)NC(=O)[C@H](CC(=O)O)NC(=O)[C@H](Cc1c[nH]cn1)NC(=O)[C@H](Cc1c[nH]c2ccccc12)NC(=O)[C@H](C)NC(=O)[C@@H](N)CCSC)C(N)=O` (stereo partly drawn) is recorded as 0.31% (C57BL/6 mouse female, ovary; dose not given, 6 h; reference: total).
`CN1Cc2cc(Cl)ccc2-n2c(nnc2C2CCN(c3cccc([18F])n3)CC2)C1` gave a tissue uptake of 1.51 ± 0.83 %ID/g (C57BL/6 mouse male, bone; intravenous, 3.7 MBq, 1 min).
With `N=C(N)NCCC[C@@H](NC(=O)[C@H](N)Cc1c[nH]c2ccccc12)C(=O)N[C@H](CCCCN)C(=O)N[C@H](Cc1c[nH]c2ccccc12)C(=O)N[C@H](CCCNC(=N)N)C(=O)N[C@H](CCCCN)C(=O)N[C@H](Cc1c[nH]c2ccccc12)C(=O)N[C@H](CCCNC(=N)N)C(=O)N[C@H](CCCCN)C(=O)N[C@H](Cc1c[nH]c2ccccc12)C(=O)N[C@H](CCCNC(=N)N)C(=O)N[C@H](CCCCN)C(N)=O` the survival was 100% (mouse; intraperitoneal, 20 mg/kg single dose, day 2).
With `CCCCCCCCCCCCCCCC(=O)N[C@@H](CCC(=O)NCCOCCOCCC(=O)NCCOCCOCCC(=O)NCCCC[C@H](NC(=O)[C@H](CC(=O)O)NC(=O)[C@H](CC(C)C)NC(=O)[C@H](Cc1ccc(O)cc1)NC(=O)[C@H](CCCCN)NC(=O)[C@H](CO)NC(=O)[C@H](Cc1ccc(O)cc1)NC(=O)[C@H](CC(=O)O)NC(=O)[C@H](CO)NC(=O)[C@@H](NC(=O)[C@H](Cc1ccccc1)NC(=O)[C@@H](NC(=O)CNC(=O)[C@H](CCC(N)=O)NC(=O)[C@@H](CO)NC(=O)[C@@H](N)Cc1c[nH]cn1)[C@@H](C)O)[C@@H](C)O)C(=O)N[C@@H](CCCNC(=N)N)C(=O)N[C@@H](CCCNC(=N)N)C(=O)N[C@@H](C)C(=O)N[C@@H](CCC(N)=O)C(=O)N[C@@H](CC(=O)O)C(=O)N[C@@H](Cc1ccccc1)C(=O)N[C@H](C(=O)N[C@@H](CCC(N)=O)C(=O)N[C@@H](Cc1c[nH]c2ccccc12)C(=O)N[C@@H](CC(C)C)C(=O)N[C@@H](CC(C)C)C(=O)N[C@@H](CC(N)=O)C(=O)N[C@H](C(=O)NCC(=O)NCC(=O)N1CCC[C@H]1C(=O)N[C@@H](CO)C(=O)N[C@@H](CO)C(=O)NCC(=O)N[C@@H](C)C(=O)N1CCC[C@H]1C(=O)N1CCC[C@H]1C(=O)N1CCC[C@H]1C(=O)N[C@@H](CO)C(N)=O)[C@@H](C)O)C(C)C)C(=O)O` the total bilirubin was 0.9 ± 0.5 µmol/L (Sprague-Dawley rat, female; subcutaneous, 20 µg/kg once daily, 14 days).
For `CC1COCCN1c1nc(NCc2cccnc2C(F)(F)F)c2cccnc2n1` (stereo not drawn), toxicological findings read “no effect” (Sprague Dawley rat; oral, 300 mg/kg once daily, 7 days).

Some of these lines once more:
With `COc1cnc2cccc(N3CCc4c(cc(Cn5ccnc5)cc4-c4cn(C)nc4C(F)(F)F)C3=O)c2c1` the body weight was 20.5 g and 21.2 g and 22.3 g and 23.8 g and 23.6 g (BALB/c nude mice, MV4-11 xenograft; intraperitoneal, 50 mg/kg, day 17).
